Measured values gathered from unrelated publications.
Each line is one published result; not all experiments were run side by side. Numbers after ± are the reported error.
UGT1A9: UDP-glucuronosyltransferase 1A9 (UGT1A9, Homo sapiens, UniProt O60656)
UniProt O60656, sequence (whole entry, looked up): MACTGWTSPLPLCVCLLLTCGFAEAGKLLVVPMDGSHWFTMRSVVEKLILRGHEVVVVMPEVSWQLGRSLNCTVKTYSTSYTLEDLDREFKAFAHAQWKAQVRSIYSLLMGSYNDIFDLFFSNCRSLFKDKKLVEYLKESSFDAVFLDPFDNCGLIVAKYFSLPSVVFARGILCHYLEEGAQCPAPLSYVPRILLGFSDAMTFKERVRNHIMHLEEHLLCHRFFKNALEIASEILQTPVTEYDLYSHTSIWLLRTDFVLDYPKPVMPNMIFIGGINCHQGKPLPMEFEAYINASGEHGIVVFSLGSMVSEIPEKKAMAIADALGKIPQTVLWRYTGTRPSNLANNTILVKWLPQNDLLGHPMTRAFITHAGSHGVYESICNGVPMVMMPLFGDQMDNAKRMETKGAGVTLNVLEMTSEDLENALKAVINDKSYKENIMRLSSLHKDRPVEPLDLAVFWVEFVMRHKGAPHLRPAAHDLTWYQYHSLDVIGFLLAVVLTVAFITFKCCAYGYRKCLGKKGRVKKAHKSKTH
SULT2A1: Sulfotransferase 2A1 (SULT2A1, Homo sapiens, UniProt Q06520)
UniProt Q06520, sequence (whole entry, looked up): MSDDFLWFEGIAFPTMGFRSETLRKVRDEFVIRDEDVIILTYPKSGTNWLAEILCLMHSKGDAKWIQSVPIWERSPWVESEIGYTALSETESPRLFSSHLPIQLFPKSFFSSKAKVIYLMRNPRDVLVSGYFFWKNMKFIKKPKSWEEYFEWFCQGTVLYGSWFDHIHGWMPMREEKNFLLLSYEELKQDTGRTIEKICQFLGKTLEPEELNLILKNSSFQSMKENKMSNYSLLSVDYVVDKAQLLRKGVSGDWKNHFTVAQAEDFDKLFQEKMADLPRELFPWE
UniProt P52792, sequence (whole entry, looked up): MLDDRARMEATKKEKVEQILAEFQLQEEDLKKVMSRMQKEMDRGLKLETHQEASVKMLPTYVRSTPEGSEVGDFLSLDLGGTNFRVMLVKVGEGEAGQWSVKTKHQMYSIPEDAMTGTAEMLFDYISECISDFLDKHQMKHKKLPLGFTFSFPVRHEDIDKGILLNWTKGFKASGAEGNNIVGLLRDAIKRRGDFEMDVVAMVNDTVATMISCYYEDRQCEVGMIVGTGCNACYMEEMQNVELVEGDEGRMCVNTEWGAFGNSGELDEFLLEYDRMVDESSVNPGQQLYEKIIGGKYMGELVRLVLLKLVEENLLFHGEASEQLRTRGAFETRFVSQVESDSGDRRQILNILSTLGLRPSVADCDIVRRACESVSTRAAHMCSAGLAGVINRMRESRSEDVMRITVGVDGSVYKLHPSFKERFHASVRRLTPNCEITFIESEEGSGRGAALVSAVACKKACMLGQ
UniProt P04191, sequence (whole entry, looked up): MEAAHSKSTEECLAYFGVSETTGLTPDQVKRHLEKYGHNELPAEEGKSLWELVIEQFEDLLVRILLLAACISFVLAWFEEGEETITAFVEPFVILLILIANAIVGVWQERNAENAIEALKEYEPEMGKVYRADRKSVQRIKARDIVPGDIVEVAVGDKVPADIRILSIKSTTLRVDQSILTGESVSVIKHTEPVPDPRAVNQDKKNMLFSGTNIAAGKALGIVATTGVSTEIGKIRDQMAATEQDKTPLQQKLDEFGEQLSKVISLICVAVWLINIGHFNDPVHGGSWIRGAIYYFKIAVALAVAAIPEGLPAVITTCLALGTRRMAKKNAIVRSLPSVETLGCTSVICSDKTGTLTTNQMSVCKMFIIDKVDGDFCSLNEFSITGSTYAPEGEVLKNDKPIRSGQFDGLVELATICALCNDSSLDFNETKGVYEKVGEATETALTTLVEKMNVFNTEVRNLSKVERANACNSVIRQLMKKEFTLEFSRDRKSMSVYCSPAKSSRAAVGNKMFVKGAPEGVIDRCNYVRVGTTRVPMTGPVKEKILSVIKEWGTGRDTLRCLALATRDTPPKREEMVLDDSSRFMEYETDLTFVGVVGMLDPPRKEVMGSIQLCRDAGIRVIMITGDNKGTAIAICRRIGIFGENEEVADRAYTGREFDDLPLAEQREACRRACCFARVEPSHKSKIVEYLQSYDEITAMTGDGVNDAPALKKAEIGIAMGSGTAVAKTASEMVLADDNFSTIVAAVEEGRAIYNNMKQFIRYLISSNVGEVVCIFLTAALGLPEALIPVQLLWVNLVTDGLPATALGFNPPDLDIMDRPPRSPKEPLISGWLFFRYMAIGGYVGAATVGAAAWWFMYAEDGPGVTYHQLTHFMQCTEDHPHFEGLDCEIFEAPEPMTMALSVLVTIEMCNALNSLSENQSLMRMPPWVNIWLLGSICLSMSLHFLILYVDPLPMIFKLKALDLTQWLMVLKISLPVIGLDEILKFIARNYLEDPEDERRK
UniProt Q86YT5, sequence (whole entry, looked up): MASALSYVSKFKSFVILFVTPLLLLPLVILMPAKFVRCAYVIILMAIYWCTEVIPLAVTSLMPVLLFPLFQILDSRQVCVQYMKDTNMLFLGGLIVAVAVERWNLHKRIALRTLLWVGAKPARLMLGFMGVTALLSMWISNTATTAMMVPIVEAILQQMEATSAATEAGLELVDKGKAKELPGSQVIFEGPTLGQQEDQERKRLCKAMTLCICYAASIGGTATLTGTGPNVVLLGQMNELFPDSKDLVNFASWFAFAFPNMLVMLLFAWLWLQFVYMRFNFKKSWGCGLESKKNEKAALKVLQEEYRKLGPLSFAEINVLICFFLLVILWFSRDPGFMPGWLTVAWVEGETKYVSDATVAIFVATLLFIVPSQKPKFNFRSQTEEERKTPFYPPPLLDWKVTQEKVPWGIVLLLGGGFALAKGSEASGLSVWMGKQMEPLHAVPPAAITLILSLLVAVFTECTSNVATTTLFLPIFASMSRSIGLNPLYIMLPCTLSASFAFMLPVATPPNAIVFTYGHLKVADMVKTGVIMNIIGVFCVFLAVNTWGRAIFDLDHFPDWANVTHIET

`CCOC(=O)CC1C(C(=O)OCC)=C(N)Oc2ccc(-c3cc(OC)cc(OC)c3)cc21` (stereo not drawn) gave a Vmax of 0.8 ± 0.04 (ATP2A1 (Oryctolagus cuniculus, UniProt P04191); Ca2+-dependent ATPase activity; rabbit SR vesicles; 10 µM, unit not given, added: varied Ca2+; baseline: control).
`O=c1c(O)c(-c2ccccc2)oc2ccc(O)cc12` gave a Vmax of 13000 pmol/mg/min (UGT1A9; substrate; pH 7.4, 37 °C).
The Vmax of `CS(=O)(=O)c1ccc([C@@H](CC2CCCC2)C(=O)Nc2nccs2)cc1` is reported as 138 ± 6.15% (Hexokinase-4 (Mus musculus, UniProt P52792); activator; 3 µM, pH 7.4, 37 °C, with or without BAD SAHB, added: glucose 0 to 50 mM, ATP 5 mM; baseline: vehicle).
With `Oc1c(Cl)cc(-c2ccccc2Cl)cc1Cl` the Vmax was 57100 ± 11400 pmol/mg/min (SULT2A1; substrate, HPLC of PAP formation; substrate inhibition fit, added: PAPS 200 µM).
`CCCCc1ccc(O)cc1` has a Vmax of 647 pmol/mg/min (UGT1A9; substrate; pH 7.4, 37 °C).
For `Oc1ccc(-c2ccc(Cl)cc2Cl)cc1Cl`, the Vmax was 8500 ± 500 pmol/mg/min (SULT2A1; substrate, HPLC of PAP formation; substrate inhibition fit, added: PAPS 200 µM).
For `O=C(NCc1ccc(F)cc1)C1CCN(S(=O)(=O)c2cc(Cl)cc(Cl)c2)CC1`, the Vmax was 22 ± 3 nmol/mg protein/30 min (Na(+)/citrate cotransporter (Homo sapiens, UniProt Q86YT5); inhibitor; HepG2; 0.3 µM, 30 min, preincubated then washed, added: citrate).
`Cc1cc(O)cc2oc(-c3ccccc3)cc(=O)c12` has a Vmax of 5370 pmol/mg/min (UGT1A9; substrate; pH 7.4, 37 °C).
With `Oc1ccc(-c2ccc(Cl)c(Cl)c2)c(Cl)c1` the Vmax was 21000 ± 7400 pmol/mg/min (SULT2A1; substrate, HPLC of PAP formation; substrate inhibition fit, added: PAPS 200 µM).

Excerpt of the above:
With `Oc1c(Cl)cc(-c2ccccc2Cl)cc1Cl` the Vmax was 57100 ± 11400 pmol/mg/min (SULT2A1; substrate, HPLC of PAP formation; substrate inhibition fit, added: PAPS 200 µM).
